Assay results from different studies.
Each numbered part is a random draw from the data of one study; scales do not carry over between parts. Several values in a cell are separate wells, animals, samples, runs or records.
Sequence of UniProt P10635 (whole entry, looked up): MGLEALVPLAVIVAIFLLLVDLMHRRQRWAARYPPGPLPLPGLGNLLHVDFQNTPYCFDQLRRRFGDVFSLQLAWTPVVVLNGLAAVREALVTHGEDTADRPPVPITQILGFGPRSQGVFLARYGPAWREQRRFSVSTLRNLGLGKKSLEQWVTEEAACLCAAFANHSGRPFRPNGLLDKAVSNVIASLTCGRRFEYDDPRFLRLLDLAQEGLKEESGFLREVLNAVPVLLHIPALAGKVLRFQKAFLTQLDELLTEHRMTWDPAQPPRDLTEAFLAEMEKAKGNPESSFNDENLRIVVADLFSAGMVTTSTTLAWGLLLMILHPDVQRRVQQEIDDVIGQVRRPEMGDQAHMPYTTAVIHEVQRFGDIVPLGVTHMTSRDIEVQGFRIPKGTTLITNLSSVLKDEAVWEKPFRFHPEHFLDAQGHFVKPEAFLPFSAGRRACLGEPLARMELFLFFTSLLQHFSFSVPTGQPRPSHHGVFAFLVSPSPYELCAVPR
Sequence of UniProt P20813 (whole entry, looked up): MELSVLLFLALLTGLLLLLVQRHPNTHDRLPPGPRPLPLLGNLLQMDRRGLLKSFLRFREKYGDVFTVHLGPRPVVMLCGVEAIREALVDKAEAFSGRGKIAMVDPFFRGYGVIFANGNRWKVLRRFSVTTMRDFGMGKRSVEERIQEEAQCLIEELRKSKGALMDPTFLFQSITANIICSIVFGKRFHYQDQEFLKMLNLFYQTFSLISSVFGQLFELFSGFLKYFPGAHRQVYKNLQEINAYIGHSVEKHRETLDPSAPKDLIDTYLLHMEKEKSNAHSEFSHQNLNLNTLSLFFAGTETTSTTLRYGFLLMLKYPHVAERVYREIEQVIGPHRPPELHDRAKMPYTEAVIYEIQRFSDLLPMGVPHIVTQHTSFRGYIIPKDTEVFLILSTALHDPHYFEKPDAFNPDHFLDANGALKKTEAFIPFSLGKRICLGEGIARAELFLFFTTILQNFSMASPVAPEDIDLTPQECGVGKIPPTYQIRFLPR
Sequence of UniProt P11712 (whole entry, looked up): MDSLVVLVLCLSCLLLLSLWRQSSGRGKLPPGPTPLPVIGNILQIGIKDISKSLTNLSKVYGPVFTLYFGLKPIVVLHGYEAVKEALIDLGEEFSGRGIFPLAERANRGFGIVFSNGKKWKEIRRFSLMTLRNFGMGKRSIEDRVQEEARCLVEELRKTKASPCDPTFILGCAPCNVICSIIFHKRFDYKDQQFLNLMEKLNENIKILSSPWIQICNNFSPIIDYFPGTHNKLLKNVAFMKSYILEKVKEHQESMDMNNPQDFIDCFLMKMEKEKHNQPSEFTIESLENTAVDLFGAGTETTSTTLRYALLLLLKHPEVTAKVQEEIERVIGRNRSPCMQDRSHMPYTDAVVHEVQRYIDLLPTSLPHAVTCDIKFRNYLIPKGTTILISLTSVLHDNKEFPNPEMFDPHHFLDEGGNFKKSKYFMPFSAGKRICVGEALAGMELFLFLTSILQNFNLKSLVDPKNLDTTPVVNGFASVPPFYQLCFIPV
Sequence of UniProt P33261 (whole entry, looked up): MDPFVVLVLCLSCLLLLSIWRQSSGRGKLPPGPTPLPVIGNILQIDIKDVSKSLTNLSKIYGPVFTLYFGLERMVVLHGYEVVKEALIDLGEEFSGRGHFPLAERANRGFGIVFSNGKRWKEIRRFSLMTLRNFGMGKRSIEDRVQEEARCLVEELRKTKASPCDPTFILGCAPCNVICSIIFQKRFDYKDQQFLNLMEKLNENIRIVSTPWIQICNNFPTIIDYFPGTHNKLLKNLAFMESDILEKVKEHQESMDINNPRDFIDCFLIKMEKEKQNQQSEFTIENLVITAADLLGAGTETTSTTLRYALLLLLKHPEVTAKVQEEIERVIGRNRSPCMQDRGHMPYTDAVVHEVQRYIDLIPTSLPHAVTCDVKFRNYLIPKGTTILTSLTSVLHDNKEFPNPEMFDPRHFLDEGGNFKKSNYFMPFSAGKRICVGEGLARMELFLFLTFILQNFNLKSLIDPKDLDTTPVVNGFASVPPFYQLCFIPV
Sequence of UniProt Q13163 (whole entry, looked up): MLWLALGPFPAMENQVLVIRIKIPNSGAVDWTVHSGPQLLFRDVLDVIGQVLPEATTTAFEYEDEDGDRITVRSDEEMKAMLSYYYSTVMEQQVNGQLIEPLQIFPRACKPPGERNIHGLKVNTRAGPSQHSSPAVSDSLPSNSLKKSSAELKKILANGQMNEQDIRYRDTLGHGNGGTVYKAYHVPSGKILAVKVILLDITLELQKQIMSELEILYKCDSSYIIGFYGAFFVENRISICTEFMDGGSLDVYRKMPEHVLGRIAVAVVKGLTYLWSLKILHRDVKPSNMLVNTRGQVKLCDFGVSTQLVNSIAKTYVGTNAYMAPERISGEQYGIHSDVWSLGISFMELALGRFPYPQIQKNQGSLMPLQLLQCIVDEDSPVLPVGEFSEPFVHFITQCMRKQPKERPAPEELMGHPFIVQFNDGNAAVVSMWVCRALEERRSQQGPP

Sample 1 — observed: enzyme activity; mode: inhibitor; method: Ub-TR-FRET; matrix: HECT domain; concentration: 3.704 µM; direction: higher = more chain formation; measurement: ubiquitin chain formation AUC
Target: E3 ubiquitin-protein ligase NEDD4, HECT domain (Homo sapiens, UniProt P46934)
Construct (P46934 938-1319, limits assumed): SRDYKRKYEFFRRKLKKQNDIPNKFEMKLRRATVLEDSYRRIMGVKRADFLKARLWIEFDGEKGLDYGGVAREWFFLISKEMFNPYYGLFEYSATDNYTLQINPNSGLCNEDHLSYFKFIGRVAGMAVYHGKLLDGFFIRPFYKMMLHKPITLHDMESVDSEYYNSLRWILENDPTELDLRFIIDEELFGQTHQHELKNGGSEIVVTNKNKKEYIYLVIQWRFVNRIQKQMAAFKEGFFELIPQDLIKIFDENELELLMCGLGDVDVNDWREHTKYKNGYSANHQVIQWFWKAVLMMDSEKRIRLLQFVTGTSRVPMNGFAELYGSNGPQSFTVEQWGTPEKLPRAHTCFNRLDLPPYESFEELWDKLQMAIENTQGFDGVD
CCOC(=O)/C=C/CN(CC)CCCCN1c2ccccc2CCc2ccc(Cl)cc21.O=C(O)/C=C\C(=O)O: 27700 a.u. and 37300 a.u. and 27900 a.u. and 44500 a.u. and 40200 a.u. and 29500 a.u.
CN(C)C(=O)/C=C/CNCCCN1c2ccccc2CCc2ccc(Cl)cc21.Cl: 133000 a.u. and 135000 a.u. and 134000 a.u.
CCONC(=O)/C=C/CNCCCCN1c2ccccc2CCc2ccc(Cl)cc21.O=C(O)/C=C\C(=O)O: 4530 a.u. and 5340 a.u. and 5470 a.u. and 5380 a.u. and 4880 a.u. and 4570 a.u.
CCOC(=O)/C=C/CN(CCCCN1c2ccccc2CCc2ccc(Cl)cc21)C(C)C.O=C(O)/C=C\C(=O)O: 29700 a.u. and 31400 a.u. and 27000 a.u. and 35200 a.u. and 29400 a.u. and 27200 a.u.
CCOC(=O)/C=C/CNCCCCN1c2cc(Cl)ccc2C(=O)N(C)c2ccccc21.O=C(O)/C=C\C(=O)O: 22700 a.u. and 21400 a.u. and 18500 a.u.
CNCCCN1c2ccccc2CCc2ccc(Cl)cc21: 139000 a.u. and 140000 a.u. and 142000 a.u.
N#C/C=C/CNCCCCN1c2ccccc2CCc2ccc(Cl)cc21.O=C(O)/C=C\C(=O)O: 10100 a.u. and 10200 a.u. and 12100 a.u. and 10600 a.u. and 11200 a.u.
CC(C)ONC(=O)/C=C/CNCCCCN1c2ccccc2CCc2ccc(Cl)cc21.O=C(O)/C=C\C(=O)O: 7180 a.u. and 10100 a.u. and 7070 a.u. and 9030 a.u. and 6810 a.u. and 9490 a.u.
COC(=O)CCCNCCCN1c2ccccc2CCc2ccc(Cl)cc21.COC(=O)CCCNCCCN1c2ccccc2CCc2ccc(Cl)cc21.O=C(O)/C=C/C(=O)O: 124000 a.u. and 125000 a.u.

Sample 2 — measurement: inhibition
Structure (SMILES): CC(C)=CCN1C(=O)C(O)(C(=O)O)Oc2cc(F)ccc21 (stereo not shown)
Zea mays; fresh weight; soil surface spray, 150 g ai/ha, 21 days, pre-emergence crop safety: 7.2% and 6.1% and 6.5%
Arabidopsis thaliana; hypocotyl length; Col-0, seedlings; 25 µg/mL: 11.8%
Arabidopsis thaliana; root length; Col-0; 50.0 µg/mL, 7 days, seed germination, dark: 30.9%
Eclipta prostrata; fresh weight; 150 g ai/ha, post-emergence treatment: 50.4% and 48.9%
Arabidopsis thaliana; hypocotyl length; Col-0, seedlings; 6.25 µg/mL: 3.92%
Arabidopsis thaliana; root length; Col-0; 100 µg/mL, 7 days, seed germination, dark: 41%
Alopecurus aequalis; fresh weight; 150 g ai/ha, pre-emergence treatment: 74.5% and 79.1% and 81.3%
Arabidopsis thaliana; root length; Col-0, seedlings; 12.5 µg/mL: 12.6%
Alopecurus japonicus; fresh weight; 150 g ai/ha, pre-emergence treatment: 65.1% and 65% and 62.8%
Arabidopsis thaliana; root length; Col-0, seedlings; 6.25 µg/mL: 11.9%
Arabidopsis thaliana; root length; Col-0, seedlings; 100 µg/mL: 41%
Triticum aestivum; fresh weight; soil surface spray, 150 g ai/ha, 21 days, pre-emergence crop safety: 11.5% and 12% and 12.2%
Oryza sativa; fresh weight; soil surface spray, 150 g ai/ha, 21 days, pre-emergence crop safety: 8% and 7% and 9.3%
Arabidopsis thaliana; hypocotyl length; Col-0; 3.125 µg/mL, 7 days, seed germination, dark: 1.4%

Sample 3 — mode: inhibitor; measurement: remaining activity
SMILES: NC/C(=C\F)COc1cccc(Cn2c(=S)[nH]c(=O)c3[nH]cnc32)c1
CYP3A4: Cytochrome P450 3A4 (CYP3A4, Homo sapiens, UniProt P08684)
Sequence of UniProt P08684 (whole entry, looked up): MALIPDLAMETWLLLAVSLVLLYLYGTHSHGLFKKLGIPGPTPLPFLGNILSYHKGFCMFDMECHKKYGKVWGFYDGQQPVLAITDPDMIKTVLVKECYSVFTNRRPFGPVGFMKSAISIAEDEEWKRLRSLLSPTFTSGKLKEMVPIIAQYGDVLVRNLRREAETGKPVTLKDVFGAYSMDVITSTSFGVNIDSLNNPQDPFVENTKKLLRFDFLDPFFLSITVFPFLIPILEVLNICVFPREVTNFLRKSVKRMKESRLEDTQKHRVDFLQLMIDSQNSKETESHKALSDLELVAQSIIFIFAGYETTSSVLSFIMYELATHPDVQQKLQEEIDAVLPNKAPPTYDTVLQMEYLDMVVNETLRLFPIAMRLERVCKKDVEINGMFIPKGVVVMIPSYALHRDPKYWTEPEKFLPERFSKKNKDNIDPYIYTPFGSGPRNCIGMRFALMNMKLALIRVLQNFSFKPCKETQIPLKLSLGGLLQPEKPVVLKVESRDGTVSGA
CYP2C8: Cytochrome P450 2C8 (CYP2C8, Homo sapiens, UniProt P10632)
Sequence of UniProt P10632 (whole entry, looked up): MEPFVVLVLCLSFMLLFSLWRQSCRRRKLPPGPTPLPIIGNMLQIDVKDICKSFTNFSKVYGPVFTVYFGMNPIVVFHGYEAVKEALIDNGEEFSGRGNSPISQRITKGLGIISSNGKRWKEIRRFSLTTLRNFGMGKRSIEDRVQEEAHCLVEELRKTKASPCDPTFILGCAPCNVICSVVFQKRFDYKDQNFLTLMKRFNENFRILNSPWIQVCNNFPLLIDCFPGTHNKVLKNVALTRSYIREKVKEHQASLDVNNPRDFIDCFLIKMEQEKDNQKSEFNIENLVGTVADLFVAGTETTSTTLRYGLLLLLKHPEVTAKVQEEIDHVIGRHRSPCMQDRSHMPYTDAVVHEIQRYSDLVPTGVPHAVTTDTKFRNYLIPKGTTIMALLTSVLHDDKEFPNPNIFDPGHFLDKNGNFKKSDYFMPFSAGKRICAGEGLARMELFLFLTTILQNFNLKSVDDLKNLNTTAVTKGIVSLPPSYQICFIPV
CYP3A4; enzyme activity; 0.37 µM: 98.6%
CYP2C8; 0.37 µM: 121% and 117%
CYP2C19 (Homo sapiens, UniProt P33261); 3.33 µM: 67.3% and 107%
Cytochrome P450 2B6 (CYP2B6, Homo sapiens, UniProt P20813); 0.37 µM: 88.2% and 76.8%
CYP2C8; 30 µM: 37.6% and 35.1%
CYP3A4; enzyme activity; 30 µM: 37.3%
Cytochrome P450 2D6 (CYP2D6, Homo sapiens, UniProt P10635); 0.37 µM: 95.6% and 103%
Cytochrome P450 2C9 (CYP2C9, Homo sapiens, UniProt P11712); 30 µM: 33.4% and 27.1%

Sample 4 — measurement: inhibition
Compound: Cc1ccc(O)c(C)c1-c1cnc2[nH]c(-c3cnc(N4CCC(CN5CCN(c6cc7c(cc6F)n(C6CCC(=O)NC6=O)c(=O)n7C)CC5)CC4)nc3)cc2c1C#N (stereo not shown)
Target: Membrane-associated tyrosine- and threonine-specific cdc2-inhibitory kinase (PKMYT1, Homo sapiens, UniProt Q99640)
Residues (Q99640 1-499): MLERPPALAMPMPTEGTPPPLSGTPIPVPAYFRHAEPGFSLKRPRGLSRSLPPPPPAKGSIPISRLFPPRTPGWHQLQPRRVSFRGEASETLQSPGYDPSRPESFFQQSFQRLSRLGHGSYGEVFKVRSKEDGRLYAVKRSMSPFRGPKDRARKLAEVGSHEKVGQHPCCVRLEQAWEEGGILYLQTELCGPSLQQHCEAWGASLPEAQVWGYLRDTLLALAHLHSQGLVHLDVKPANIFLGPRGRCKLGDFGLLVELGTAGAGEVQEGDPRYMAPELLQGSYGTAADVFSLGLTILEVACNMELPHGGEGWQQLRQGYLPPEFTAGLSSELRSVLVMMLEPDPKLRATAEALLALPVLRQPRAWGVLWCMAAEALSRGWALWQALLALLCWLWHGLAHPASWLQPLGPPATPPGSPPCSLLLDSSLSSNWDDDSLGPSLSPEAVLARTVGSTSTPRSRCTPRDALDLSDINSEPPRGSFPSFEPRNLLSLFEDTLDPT
0.00412 µM: 54.4%
cell-free assay, inhibitor, TR-FRET; 1 µM: 99.2%
cell-free assay, inhibitor, TR-FRET; 12.35 nM: 88.5%
cell-free assay, inhibitor, TR-FRET; 0.3333 µM: 99.9%
cell-free assay, inhibitor, TR-FRET; 460 pM: 7.25%
0.00137 µM: 22.8%
cell-free assay, inhibitor, TR-FRET; 37.04 nM: 98%
0.01235 µM: 85.6%
0.03704 µM: 95.4%
5.1e-05 µM: 0.045%

Sample 5 — cell line: MDA-MB-231; observed: cell viability; method: CellCounting-Lite; concentration: 222.2 nM; temperature: 37 °C; direction: higher = more viable cells; measurement: luminescence signal
CCn1cnc2c(NCc3nc4cc(Cl)c(Cl)cc4[nH]3)nc(N3CCN(c4ccccn4)CC3)nc21: 498000 a.u. and 532000 a.u. and 504000 a.u.
CCn1cnc2c(NCc3nc4cc(Cl)c(Cl)cc4[nH]3)nc(N3CCN(C(=O)c4ccncc4)CC3)nc21: 8990 a.u. and 9360 a.u. and 11900 a.u.
CCn1cnc2c(NCc3nc4ccc(F)c(F)c4[nH]3)nc(N3CCn4ncnc4C3)nc21: 105000 a.u. and 81100 a.u. and 113000 a.u.
CCCCOc1nc(NCc2nc3cc(Cl)c(Cl)cc3[nH]2)c2ncn(CC)c2n1: 210000 a.u. and 267000 a.u. and 266000 a.u.
CCn1cnc2c(NCc3nc4cc(Cl)c(Cl)cc4[nH]3)nc(N3CCN(S(C)(=O)=O)CC3)nc21: 15400 a.u. and 14500 a.u. and 16300 a.u.
CC(=O)N1CCN(c2nc(NCc3nc4cc(Cl)c(Cl)cc4[nH]3)c3ncn(C)c3n2)CC1: 173000 a.u. and 178000 a.u. and 132000 a.u.
CCn1cnc2c(NCc3nc4cc(Cl)c(Cl)cc4[nH]3)nc(N3CCC(NC(C)=O)CC3)nc21: 248000 a.u. and 224000 a.u. and 202000 a.u.
CCn1cnc2c(NCc3nc4cc(Cl)c(Cl)cc4[nH]3)nc(N3CCN(C(=O)c4ccccn4)CC3)nc21: 13100 a.u. and 12600 a.u. and 13300 a.u.
CCn1cnc2c(NCc3nc4cc(Cl)c(Cl)cc4[nH]3)nc(N3CCN(C(=O)[C@H](C)NC(C)=O)CC3)nc21: 78900 a.u. and 78500 a.u. and 73000 a.u.
CCn1cnc2c(NCc3nc4cc(Cl)c(Cl)cc4[nH]3)nc(N3CCN(C(=O)c4cccnc4)CC3)nc21: 12900 a.u. and 11400 a.u. and 9820 a.u.

Sample 6 — observed: thermal unfolding; method: differential scanning fluorimetry; concentration: 5.5 µM; direction: higher = more unfolded; measurement: SYPRO Orange fluorescence
Structure (SMILES): C[C@@H]1CN(c2ccc(-c3cc(C(=O)NCCOCCOCCOCCOCCNC(=O)Cn4cc(-c5[nH]cc(C(=O)N[C@@H](CC(N)=O)c6ccc(F)c(Cl)c6)c5-c5ccc(Cl)cc5F)cn4)ccc3F)cc2NC(=O)c2c[nH]c(=O)cc2C(F)(F)F)C[C@H](C)N1C
DCAF1: DDB1- and CUL4-associated factor 1 (DCAF1, Homo sapiens, UniProt Q9Y4B6)
Sequence of UniProt Q9Y4B6 (whole entry, looked up): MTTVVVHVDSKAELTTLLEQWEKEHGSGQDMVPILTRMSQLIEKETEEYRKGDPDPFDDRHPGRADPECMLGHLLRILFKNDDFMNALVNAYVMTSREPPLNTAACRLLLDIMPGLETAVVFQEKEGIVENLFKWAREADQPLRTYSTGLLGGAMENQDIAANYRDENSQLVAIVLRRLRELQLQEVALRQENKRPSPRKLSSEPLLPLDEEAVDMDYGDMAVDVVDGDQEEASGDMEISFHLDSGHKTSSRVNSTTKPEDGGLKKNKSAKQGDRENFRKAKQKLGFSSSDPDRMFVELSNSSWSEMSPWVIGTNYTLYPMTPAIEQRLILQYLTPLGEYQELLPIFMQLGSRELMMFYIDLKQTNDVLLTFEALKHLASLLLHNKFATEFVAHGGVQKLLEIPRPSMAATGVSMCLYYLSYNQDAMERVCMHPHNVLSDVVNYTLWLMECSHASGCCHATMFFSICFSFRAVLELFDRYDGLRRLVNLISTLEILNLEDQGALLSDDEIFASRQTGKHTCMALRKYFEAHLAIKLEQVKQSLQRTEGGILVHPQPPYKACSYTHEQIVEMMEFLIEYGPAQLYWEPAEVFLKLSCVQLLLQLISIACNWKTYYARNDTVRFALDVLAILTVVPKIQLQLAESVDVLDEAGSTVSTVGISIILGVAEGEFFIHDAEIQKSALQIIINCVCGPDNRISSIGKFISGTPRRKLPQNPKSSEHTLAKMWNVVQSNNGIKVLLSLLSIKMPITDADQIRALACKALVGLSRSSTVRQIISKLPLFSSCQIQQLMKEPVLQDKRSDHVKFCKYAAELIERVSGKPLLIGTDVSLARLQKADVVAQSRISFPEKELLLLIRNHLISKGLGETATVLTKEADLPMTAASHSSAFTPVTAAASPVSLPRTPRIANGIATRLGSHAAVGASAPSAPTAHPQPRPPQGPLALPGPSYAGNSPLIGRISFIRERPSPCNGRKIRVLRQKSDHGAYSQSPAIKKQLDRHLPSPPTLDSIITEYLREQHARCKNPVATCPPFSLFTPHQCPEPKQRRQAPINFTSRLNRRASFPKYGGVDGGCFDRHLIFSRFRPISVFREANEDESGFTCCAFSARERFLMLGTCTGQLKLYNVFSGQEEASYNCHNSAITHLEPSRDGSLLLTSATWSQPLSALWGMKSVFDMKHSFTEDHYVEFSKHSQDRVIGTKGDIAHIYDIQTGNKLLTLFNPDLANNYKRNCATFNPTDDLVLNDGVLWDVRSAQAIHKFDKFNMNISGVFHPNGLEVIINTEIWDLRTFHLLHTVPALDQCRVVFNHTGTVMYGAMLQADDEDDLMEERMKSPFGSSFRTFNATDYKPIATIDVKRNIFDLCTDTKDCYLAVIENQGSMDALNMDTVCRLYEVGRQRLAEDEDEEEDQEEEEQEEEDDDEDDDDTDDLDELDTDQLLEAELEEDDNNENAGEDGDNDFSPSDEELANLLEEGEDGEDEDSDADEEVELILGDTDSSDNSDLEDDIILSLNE
WDR5: WD repeat-containing protein 5 (WDR5, Homo sapiens, UniProt P61964)
DCAF1; 29.4 °C: 8130 a.u.
DCAF1; 71.81 °C: 52500 a.u.
WDR5; 33.4 °C: 14300 a.u.
WDR5; 55.41 °C: 13300 a.u.
DCAF1; 75.81 °C: 48400 a.u.
DCAF1; 72.21 °C: 52200 a.u.
DCAF1; 80.01 °C: 44200 a.u.
WDR5; 70.81 °C: 7150 a.u.
WDR5; 55.21 °C: 13500 a.u.
DCAF1; 77.81 °C: 46100 a.u.
DCAF1; 81.81 °C: 42700 a.u.

Sample 7 — concentration: 1 µM; measurement: remaining binding
Compound: CCC1(c2cccc(-c3cn(C)nc3C)c2)C2=C(Nc3n[nH]cc31)C(F)C(C)(C)CC2=O (single isomer, unassigned)
MAPK7 (Homo sapiens, UniProt Q13164); kinase binding, KINOMEscan; relative to: DMSO control: 100%
MAP2K5 (Homo sapiens, UniProt Q13163); binding, competition with immobilised ligand: 76%
EIF2AK4 (Homo sapiens, UniProt Q9P2K8, S808G); kinase binding, KINOMEscan; relative to: DMSO control: 95%
PRPF4B (Homo sapiens, UniProt Q13523); kinase binding, KINOMEscan; relative to: DMSO control: 76%
FGFR4 (Homo sapiens, UniProt P22455); binding, competition with immobilised ligand: 99%
FER (Homo sapiens, UniProt P16591); kinase binding, KINOMEscan; relative to: DMSO control: 100%
CDPK1 (Plasmodium falciparum, UniProt P62344); binding, competition with immobilised ligand: 67%
MAP3K2 (Homo sapiens, UniProt Q9Y2U5); kinase binding, KINOMEscan; relative to: DMSO control: 100%
FGFR1 (Homo sapiens, UniProt P11362); kinase binding, KINOMEscan; relative to: DMSO control: 100%
MAP3K6 (Homo sapiens, UniProt O95382); binding, competition with immobilised ligand: 100%
MET (Homo sapiens, UniProt P08581, M1250T); kinase binding, KINOMEscan; relative to: DMSO control: 100%
AXL (Homo sapiens, UniProt P30530); binding, competition with immobilised ligand: 100%
JAK2 (Homo sapiens, UniProt O60674); kinase binding, KINOMEscan; relative to: DMSO control: 97%
TAOK2 (Homo sapiens, UniProt Q9UL54); binding, competition with immobilised ligand: 93%
ERBB2 (Homo sapiens, UniProt P04626); binding, competition with immobilised ligand: 90%

Other studies, line by line — mode: inhibitor
CN(C1COC1)C(C)(C)/C=C(\C#N)C(=O)N1CCC[C@H]1Cn1nc(-c2ccc(Oc3ccccc3)cc2F)c2c(N)ncnc21  KI (inactivation) (BTK (Homo sapiens, UniProt Q06187); enzyme activity): 11 nM
COc1cc(C(=O)OCCCN2CCCN(CCCOC(=O)c3cc(OC)c(OC)c(OCc4ccc([N+](=O)[O-])cc4)c3)CC2)cc(OC)c1OC  Hill slope (SLC29A1 (Homo sapiens, UniProt Q99808); adenosine uptake; added: [3H]adenosine): -0.958

Some of these lines once more (sample 6):
DCAF1; 29.4 °C: 8130 a.u.
DCAF1; 71.81 °C: 52500 a.u.
WDR5; 33.4 °C: 14300 a.u.
WDR5; 55.41 °C: 13300 a.u.
DCAF1; 75.81 °C: 48400 a.u.
DCAF1; 72.21 °C: 52200 a.u.
DCAF1; 80.01 °C: 44200 a.u.
WDR5; 70.81 °C: 7150 a.u.
WDR5; 55.21 °C: 13500 a.u.
DCAF1; 77.81 °C: 46100 a.u.
DCAF1; 81.81 °C: 42700 a.u.
